Results gathered from unrelated publications.
Organism: Escherichia coli

With CC[C@H](C)[C@H](NC(=O)CNC(=O)[C@H](CS)NC(=O)CNC(=O)[C@H](CO)NC(=O)[C@@H](NC(=O)[C@@H](NC(=O)[C@@H](NC(=O)[C@H](CC(N)=O)NC(=O)[C@@H](NC(=O)[C@H](CO)NC(=O)[C@H](CS)NC(=O)[C@H](C)NC(=O)[C@H](Cc1ccccc1)NC(=O)[C@H](CCCNC(=N)N)NC(=O)[C@H](CS)NC(=O)[C@H](CCCCN)NC(=O)[C@@H](NC(=O)CNC(=O)[C@@H](N)CO)[C@@H](C)CC)[C@@H](C)CC)[C@@H](C)O)[C@@H](C)O)[C@@H](C)CC)C(=O)N[C@@H](CO)C(=O)N[C@@H](CS)C(=O)N[C@@H](CCCCN)C(=O)N[C@@H](Cc1ccccc1)C(=O)O the MIC was 70.3 µg/mL (broth microdilution; K88, Mueller-Hinton broth; 37 °C).
For CO[C@@H](C(N)=O)[C@H](NC(=O)c1ccc(NC(=O)[C@@H](N)Cc2ccc(O)cc2)cc1)C(=O)Nc1ccc(C(=O)Nc2ccc(C(=O)Nc3ccc(C(=O)O)c(O)c3OC(C)C)c(O)c2OC(C)C)cc1, the MIC was > 16 µg/mL (MerR family clone; 16 h, 37 °C).
Cc1ccc2[nH]c3c(c2c1)CCCC3NCCc1ccc(Br)cc1 (centres unmarked) has an MIC of > 128 µg/mL (broth microdilution; O-19592).
With CC[C@H](C)[C@H](NC(=O)[C@@H](CCCNC(=N)N)NC(=O)[C@H](CCCNC(=N)N)NC(=O)[C@@H]1CCCN1C(=O)[C@@H]1CCCN1C(=O)[C@H](CCCNC(=N)N)NC(=O)[C@@H]1CCCN1C(=O)[C@H](CCCNC(=N)N)NC(=O)[C@@H]1CCCN1C(=O)[C@H](CC(C)C)NC(=O)[C@H](Cc1ccccc1)NC(=O)[C@@H]1CCCN1C(=O)[C@@H]1CCCN1C(=O)[C@H](CCCCN)NC(=O)[C@H](CC(=O)O)NC(=O)[C@@H](N)C(C)C)C(=O)N[C@@H](Cc1ccc(O)cc1)C(=O)N[C@@H](CC(N)=O)C(=O)N[C@H](CCCNC(=N)N)C(N)=O the MIC was 16 µg/mL (broth microdilution; BW25113; 18 h, 37 °C, 25% MHB2).
CC1(C)C(NC(=O)C(=NOC2(C(=O)O)CC2)c2csc(N)n2)C(=O)N1OS(=O)(=O)O (centres unmarked) has an MIC of 0.5 µg/mL (ATCC 2469, NDM-positive; compound alone).
CC[C@H](C)[C@H](NC(=O)[C@@H](CCCNC(=N)N)NC(=O)[C@H](CCCNC(=N)N)NC(=O)[C@@H]1CCCN1C(=O)[C@@H]1CCCN1C(=O)[C@H](CCCNC(=N)N)NC(=O)[C@@H]1CCCN1C(=O)[C@H](CCCNC(=N)N)NC(=O)[C@@H]1CCCN1C(=O)[C@H](CC(C)C)NC(=O)[C@H](Cc1ccc(O)cc1)NC(=O)[C@H](CCCNC(=N)N)NC(=O)[C@@H]1CCCN1C(=O)[C@H](CCCCN)NC(=O)[C@H](CC(=O)O)NC(=O)[C@@H](N)C(C)C)C(=O)N[C@@H](Cc1ccc(O)cc1)C(=O)N[C@@H](CC(N)=O)C(=O)N[C@H](CCCNC(=N)N)C(N)=O has an MIC of 8 µg/mL (broth microdilution; MC4100; 18 h, 37 °C, 25% MHB2).
For CC(C)C[C@H](NC(=O)[C@H](CCCNC(=N)N)NC(=O)CNC(=O)CNC(=O)[C@@H](N)CCCNC(=N)N)C(=O)N[C@H]1CSSC[C@@H](C(=O)N[C@H](C(=O)NCC(=O)N[C@@H](CCCNC(=N)N)C(N)=O)C(C)C)NC(=O)[C@H](C(C)C)NC(=O)[C@@H]2CSSC[C@H](NC(=O)[C@H](Cc3ccc(O)cc3)NC1=O)C(=O)N[C@@H](CCCNC(=N)N)C(=O)N[C@@H](CCCNC(=N)N)C(=O)N[C@@H](CCCNC(=N)N)C(=O)N[C@@H](Cc1ccccc1)C(=O)N2, the MIC was 1.8 µM (broth dilution; K12 BW25113).
For OB(O)c1ccc(OCc2ccccc2)nc1F, the MIC was > 2050 µg/mL (bacterial growth; AmpC-overproducing clinical isolate; without cefotaxime).
For CC[C@H](C)[C@H](NC(=O)[C@@H](NC(=O)[C@H](CCCCN)NC(=O)[C@H](CCC(N)=O)NC(=O)[C@@H](NC(=O)[C@H](Cc1c[nH]c2ccccc12)NC(=O)[C@H](CCCCN)NC(=O)[C@H](CCCCN)NC(=O)[C@H](CC(C)C)NC(=O)[C@H](CCCNC(=N)N)NC(=O)[C@H](Cc1ccccc1)NC(=O)[C@@H](N)C(C)C)[C@@H](C)CC)C(C)C)C(N)=O, the MIC was 128 µM (24 h, 37 °C, Mueller-Hinton broth, NaCl 150 mM).
The MIC of CC(C)Oc1c(NC(=O)c2ccc(NC(=O)[C@H](CC(N)=O)NC(=O)c3ccc(/N=N/c4ccccc4)cc3)cc2)ccc(C(=O)N/N=C/c2ccc(C(=O)O)cc2)c1O is reported as 0.28 µg/mL (BW25113; after 1 h irradiation at 365 nm).
CC[C@H](C)[C@H](NC(=O)[C@@H](CCCNC(=N)N)NC(=O)[C@H](CCCNC(=N)N)NC(=O)[C@@H]1CCCN1C(=O)[C@@H]1CCCN1C(=O)[C@H](CCCNC(=N)N)NC(=O)[C@@H]1CCCN1C(=O)[C@H](CCCNC(=N)N)NC(=O)[C@@H]1CCCN1C(=O)[C@H](CC(C)C)NC(=O)[C@H](Cc1cc(I)c(O)c(I)c1)NC(=O)[C@@H]1CCCN1C(=O)[C@@H]1CCCN1C(=O)[C@H](CCCCN)NC(=O)[C@H](CC(=O)O)NC(=O)[C@@H](N)C(C)C)C(=O)N[C@@H](Cc1ccc(O)cc1)C(=O)N[C@@H](CC(N)=O)C(=O)N[C@H](CCCNC(=N)N)C(N)=O has an MIC of > 128 µg/mL (broth microdilution; ATCC 25922; 18 h, 37 °C, 25% MHB2).
The MIC of CC(C)C[C@@H](NC(=O)[C@H](NC(=O)[C@@H](CCCCN)NC(=O)[C@@H](CCCCN)NC(=O)[C@@H](CC(C)C)NC(=O)[C@@H](Cc1c[nH]c2ccccc12)NC(=O)[C@@H](CCCCN)NC(=O)[C@@H](Cc1c[nH]c2ccccc12)NC(=O)[C@@H](CC(C)C)NC(=O)[C@@H](CCCCN)NC(=O)[C@@H](CCCCN)NC(=O)[C@H](N)C(C)C)C(C)C)C(N)=O is reported as 16 µM (24 h, 37 °C, Mueller-Hinton broth, KCl 4.5 mM).
For CC[C@H](C)[C@H](NC(=O)[C@@H](CCCNC(=N)N)NC(=O)[C@H](CCCNC(=N)N)NC(=O)[C@H](CCC(=O)O)NC(=O)[C@H](Cc1c[nH]c2ccccc12)NC(=O)[C@H](CCCNC(=N)N)NC(=O)[C@@H]1CCCN1C(=O)[C@H](CCCNC(=N)N)NC(=O)[C@@H]1CCCN1C(=O)[C@H](CC(C)C)NC(=O)[C@H](Cc1ccc(O)cc1)NC(=O)[C@@H]1CCCN1C(=O)[C@@H]1CCCN1C(=O)[C@H](CCCCN)NC(=O)[C@H](CC(=O)O)NC(=O)[C@@H](N)C(C)C)C(=O)N[C@@H](Cc1ccc(O)cc1)C(=O)N[C@@H](CC(N)=O)C(=O)N[C@H](CCCNC(=N)N)C(N)=O, the MIC was 16 µg/mL (broth microdilution; BW25113; 18 h, 37 °C, 25% MHB2).
The MIC of CCCCCCCC(=O)N[C@@H](CCN)C(=O)N[C@H](C(=O)N[C@@H](CCN)C(=O)N[C@H]1CCNC(=O)[C@H]([C@@H](C)O)NC(=O)[C@H](CCN)NC(=O)[C@H](CCN)NC(=O)[C@H](CCCc2ccccc2)NC(=O)[C@@H](Cc2ccccc2)NC(=O)[C@H](CCN)NC1=O)[C@@H](C)O is reported as < 0.125 µg/mL (broth microdilution; ATCC 25922, colistin-susceptible).
With CC[C@H](C)[C@H](NC(=O)[C@H](C)NC(=O)[C@@H](NC(=O)[C@H](CC(=O)O)NC(=O)[C@H](CCCCN)NC(=O)[C@H](CO)NC(=O)[C@@H](NC(=O)[C@H](CC(N)=O)NC(=O)[C@H](C)NC(=O)[C@@H](NC(=O)[C@H](CCC(=O)O)NC(=O)[C@H](CCCCN)NC(=O)[C@@H](NC(=O)[C@@H](NC(=O)[C@H](Cc1c[nH]cn1)NC(=O)[C@H](CCCCN)NC(=O)[C@@H](NC(=O)[C@H](CCCCN)NC(=O)[C@H](CCCCN)NC(=O)[C@@H](NC(=O)[C@H](CC(C)C)NC(=O)[C@H](CCCCN)NC(=O)[C@H](CC(N)=O)NC(=O)[C@H](Cc1ccccc1)NC(=O)[C@H](CCCNC(=N)N)NC(=O)[C@H](CCCCN)NC(=O)[C@H](CCCNC(=N)N)NC(=O)[C@H](Cc1ccccc1)NC(=O)CN)C(C)C)C(C)C)[C@@H](C)O)[C@@H](C)CC)[C@@H](C)O)C(C)C)C(C)C)C(=O)N[C@H](C(=O)N[C@@H](C)C(=O)NCC(=O)N[C@@H](CO)C(=O)NCC(=O)N[C@H](C(=O)N[C@@H](C)C(=O)N[C@H](C(=O)NCC(=O)N[C@@H](C)C(=O)N[C@@H](C)C(=O)N[C@@H](CCSC)C(N)=O)C(C)C)C(C)C)C(C)C the MIC was 1 µg/mL (broth microdilution; RKI 6 A-6, CAMHB with 10% mouse serum; 150 mM NaCl).
CN[C@@H]1[C@H](O)[C@H](NC)[C@H]2O[C@]3(O)[C@H](O[C@@H]2[C@H]1O)O[C@H](C)C[C@H]3NC(=O)Cc1ccc(F)cn1 has an MIC of 100 µg/mL (microbial growth, broth dilution; K12).
CC[C@H](C)[C@H](NC(=O)[C@@H](CCCNC(=N)N)NC(=O)[C@H](CCCNC(=N)N)NC(=O)[C@@H]1CCCN1C(=O)[C@@H]1CCCN1C(=O)[C@H](Cc1c[nH]c2ccccc12)NC(=O)[C@@H]1CCCN1C(=O)[C@H](CCCNC(=N)N)NC(=O)[C@@H]1CCCN1C(=O)[C@H](CC(C)C)NC(=O)[C@H](Cc1ccc(O)cc1)NC(=O)[C@@H]1CCCN1C(=O)[C@@H]1CCCN1C(=O)[C@H](CCCCN)NC(=O)[C@H](CC(=O)O)NC(=O)[C@@H](N)C(C)C)C(=O)N[C@@H](Cc1ccc(O)cc1)C(=O)N[C@@H](CC(N)=O)C(=O)N[C@H](CCCNC(=N)N)C(N)=O gave an MIC of 8 µg/mL (broth microdilution; BW25113; 18 h, 37 °C, 25% MHB2).
With CC(C)[C@@H]1NC(=O)[C@@H](CCCNC(=N)N)NC(=O)[C@H]([C@@H](C)O)NC(=O)[C@@H](CCCN)NC(=O)[C@H](Cc2ccccc2)NC(=O)[C@@H](Cc2ccccc2)NC1=O the MIC was > 64 µg/mL (AR0346, colistin-resistant; added: colistin).
With CC[C@H](C)[C@H](N)C(=O)N[C@@H](CCCNC(=N)N)C(=O)N[C@H](C(=O)N[C@@H](Cc1c[nH]c2ccccc12)C(=O)N[C@@H](CCCCN)C(=O)N[C@@H](CCCCN)C(=O)N[C@H](C(=O)N[C@H](C(=O)N[C@@H](CCCNC(=N)N)C(=O)N[C@@H](CCCCN)C(=O)N[C@@H](CCSC)C(=O)N[C@@H](CCCCN)C(=O)N[C@@H](C)C(=O)N[C@H](C(=O)N[C@@H](Cc1ccc(O)cc1)C(=O)N[C@@H](Cc1c[nH]cn1)C(N)=O)[C@@H](C)CC)C(C)C)[C@@H](C)CC)C(C)C the MIC was 50 µM (broth dilution; ATCC 25922, Mueller-Hinton broth; 24 h, 37 °C).
With CC[C@H](C)[C@H](NC(=O)[C@H](CCCNC(=N)N)NC(=O)[C@H](CO)NC(=O)[C@H](Cc1ccc(O)cc1)NC(=O)[C@@H](NC(=O)[C@@H](NC(=O)[C@H](C)NC(=O)CNC(=O)[C@H](CCCCN)NC(=O)[C@H](CCCCN)NC(=O)CCNC(=O)CCCCCNC(=O)[C@H](CCCNC(=N)N)NC(=O)CCCCCNC(=O)[C@H](CCCNC(=N)N)NC(=O)[C@H](CCCNC(=N)N)NC(=O)CCCCCNC(=O)[C@H](CCCNC(=N)N)NC(=O)[C@H](CCCNC(=N)N)NC(=O)CCCCCNC(=O)[C@H](CCCNC(=N)N)NC(=O)[C@H](CCCNC(=N)N)NC(=O)CCCCCNC(=O)[C@@H](N)CCCNC(=N)N)C(C)C)[C@@H](C)O)C(=O)N[C@@H](CO)C(=O)NCC(=O)N[C@@H](CCC(N)=O)C(=O)N[C@@H](Cc1ccc(O)cc1)C(=O)N[C@@H](CCCCN)C(=O)O the MIC was 6 µM (ATCC 25922, Mueller-Hinton broth; no added salt).

For quick reference, copied from above:
CC[C@H](C)[C@H](NC(=O)[C@@H](CCCNC(=N)N)NC(=O)[C@H](CCCNC(=N)N)NC(=O)[C@@H]1CCCN1C(=O)[C@@H]1CCCN1C(=O)[C@H](CCCNC(=N)N)NC(=O)[C@@H]1CCCN1C(=O)[C@H](CCCNC(=N)N)NC(=O)[C@@H]1CCCN1C(=O)[C@H](CC(C)C)NC(=O)[C@H](Cc1cc(I)c(O)c(I)c1)NC(=O)[C@@H]1CCCN1C(=O)[C@@H]1CCCN1C(=O)[C@H](CCCCN)NC(=O)[C@H](CC(=O)O)NC(=O)[C@@H](N)C(C)C)C(=O)N[C@@H](Cc1ccc(O)cc1)C(=O)N[C@@H](CC(N)=O)C(=O)N[C@H](CCCNC(=N)N)C(N)=O has an MIC of > 128 µg/mL (broth microdilution; ATCC 25922; 18 h, 37 °C, 25% MHB2).
For CO[C@@H](C(N)=O)[C@H](NC(=O)c1ccc(NC(=O)[C@@H](N)Cc2ccc(O)cc2)cc1)C(=O)Nc1ccc(C(=O)Nc2ccc(C(=O)Nc3ccc(C(=O)O)c(O)c3OC(C)C)c(O)c2OC(C)C)cc1, the MIC was > 16 µg/mL (MerR family clone; 16 h, 37 °C).
For CC[C@H](C)[C@H](NC(=O)[C@@H](NC(=O)[C@H](CCCCN)NC(=O)[C@H](CCC(N)=O)NC(=O)[C@@H](NC(=O)[C@H](Cc1c[nH]c2ccccc12)NC(=O)[C@H](CCCCN)NC(=O)[C@H](CCCCN)NC(=O)[C@H](CC(C)C)NC(=O)[C@H](CCCNC(=N)N)NC(=O)[C@H](Cc1ccccc1)NC(=O)[C@@H](N)C(C)C)[C@@H](C)CC)C(C)C)C(N)=O, the MIC was 128 µM (24 h, 37 °C, Mueller-Hinton broth, NaCl 150 mM).
